Experimental data pooled from the literature.
Numbered parts are unrelated; each lists some results of a single study. Substitutions count along the parent as printed.

Set 1
Target: CCNB3, cyclin fold, Cln2 fusion (human)
Method: yeast growth competition, sequencing
Matrix: yeast
Setting: weak parent motif
Relative to: not given
Reading: higher = stronger binding
Endpoint: normalised enrichment score
Parent: BRCA2 docking peptide (human); CKKRRALDFLSRL
Substitution = F9L; value = 0.749
Substitution = R5K; value = 0.276
Substitution = S11A; value = 0.542
Substitution = F9A; value = 0.269
Substitution = K2A; value = 0.367
Substitution = R5A; value = 0.29
Substitution = R12A; value = 1.3
Substitution = R4A; value = 0.0666
Substitution = R5A L7A; value = 0.356

Set 2
Target: Histone acetyltransferase KAT6A, both winged helices, GST fusion (KAT6A, Homo sapiens, UniProt Q92794, residues 1-181)
Method: protein binding microarray
Molecule type: double-stranded DNA, one strand shown
Matrix: in vitro
Concentration: not given
Setting: 8-mer, flanks averaged, mean of 2 arrays, mostly near background
Relative to: not given
Reading: higher = stronger binding
Endpoint: E-score
Residues (chain): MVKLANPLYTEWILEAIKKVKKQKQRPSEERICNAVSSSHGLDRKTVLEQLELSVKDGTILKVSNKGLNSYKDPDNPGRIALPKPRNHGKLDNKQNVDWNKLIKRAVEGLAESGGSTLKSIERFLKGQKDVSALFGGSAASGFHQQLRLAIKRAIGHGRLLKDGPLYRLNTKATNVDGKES
Strand = CGTGCCTA; value = 0.00721
Strand = CTATATCA; value = -0.011
Strand = GTCCGGAA; value = 0.106
Strand = ATACTGTG; value = -0.157
Strand = CGAGACTC; value = -0.0342
Strand = CCACCGCC; value = 0.134
Strand = AACGACGT; value = 0.121
Strand = TACAAGAA; value = -0.0649
Strand = CCTCTGTC; value = -0.00904
Strand = AGGCCGAG; value = 0.0688
Strand = GCCGGACC; value = 0.119
Strand = CACGAGTG; value = -0.111
Strand = ACGATACT; value = 0.0277
Strand = GCAAGGTA; value = -0.045
Strand = GTTAAAGA; value = 0.0553
Strand = CAAAGCGC; value = 0.312
Strand = CGGGAGTC; value = 0.157
Strand = GCGACCAC; value = 0.211

Set 3
Target: Ras GTPase-activating protein-binding protein 1, RRM domain (G3BP1, Homo sapiens, UniProt Q13283)
Chain of UniProt Q13283 (whole entry, looked up): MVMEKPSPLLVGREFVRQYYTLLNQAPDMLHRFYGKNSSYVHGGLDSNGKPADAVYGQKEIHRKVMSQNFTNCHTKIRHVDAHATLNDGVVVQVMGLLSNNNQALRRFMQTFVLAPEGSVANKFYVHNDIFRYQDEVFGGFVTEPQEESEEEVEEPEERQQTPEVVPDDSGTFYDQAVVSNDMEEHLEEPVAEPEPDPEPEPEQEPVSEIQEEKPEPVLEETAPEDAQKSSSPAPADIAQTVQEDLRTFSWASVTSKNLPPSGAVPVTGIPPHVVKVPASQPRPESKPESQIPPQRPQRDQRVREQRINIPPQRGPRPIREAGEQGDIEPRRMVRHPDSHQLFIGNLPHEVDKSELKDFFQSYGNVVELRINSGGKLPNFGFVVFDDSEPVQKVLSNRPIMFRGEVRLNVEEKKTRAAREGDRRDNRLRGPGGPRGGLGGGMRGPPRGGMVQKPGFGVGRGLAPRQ
Method: RNA Bind-n-Seq
Molecule type: RNA
Matrix: in vitro
Concentration: 1 µM
Setting: whole 134-nt RNA, ends assumed
With: 150 mM KCl
Relative to: input library
Reading: higher = stronger binding
Endpoint: log2 enrichment
Strand = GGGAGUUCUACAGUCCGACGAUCCCCUGUGGGCCUUGCUCAGAGCGGAGAAAGCAUUUGUUUGUACAAGAUCCGCAGACGUGUAAAUGUUCCUGCAAAAACACAGACUCGCGUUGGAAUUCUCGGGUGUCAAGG; value = -0.13
Strand = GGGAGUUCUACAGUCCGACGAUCUGGGAGGUGGAUUUUGUUUAUUUUUUUAGCUCAUUUCCAGGGGUGGGAAUUUUUUUUUAAUAUGUGUCAUGAAUAAAGUUGUUUUUCAAAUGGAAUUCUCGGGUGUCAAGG; value = 2.8
Strand = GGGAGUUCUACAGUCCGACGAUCUUCCUCAAGUCCUGUGCUACACAUCGUAUGUACCGAAUCGGCGGCGGCGGAAAGUAUUAUGUUACGCCGUUCGGAUCUGCACUUCCAGCAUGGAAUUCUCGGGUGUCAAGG; value = -0.209
Strand = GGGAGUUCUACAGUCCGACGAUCGCAGGAAGUAAAAACAAAUGGAAAUGCUUCGGAUAGUGGCAAAGGUGGGGGUUGCUAAGGAAAGGGUGGGAUGGGAGUGGGUAAAGAGUUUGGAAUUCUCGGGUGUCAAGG; value = 1.23
Strand = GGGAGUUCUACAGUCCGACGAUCCCUCAAGUCCUGUGCUACACAUCGUAUGUACCGAAUCGGGUGGGAGGGAGGGAAAGUAUUAUGUUACGCCGUUCGGAUCUGCACUUCCAGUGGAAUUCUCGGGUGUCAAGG; value = 0.526
Strand = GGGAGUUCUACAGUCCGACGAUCGCAGGAAGUAAAAACAAAUGGAAAUAAAUCGGAUAGUGGCAGGGGUGGGGGUUGCUAAGGAAAGGGUGGGAUGGGAGUGGGUAAAGAGUUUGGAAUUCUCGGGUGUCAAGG; value = 1.11
Strand = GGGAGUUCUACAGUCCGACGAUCAAGUCCUGUGCUACACAUCGUAUGUACCGAAUCGGUUUGGAAAAAGGAAAAAAAGGAAAGUAUUAUGUUACGCCGUUCGGAUCUGCACUUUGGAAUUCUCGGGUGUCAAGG; value = 0.0671
Strand = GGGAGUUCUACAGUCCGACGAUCUAACUUUAGAGGAGGAACUGAUGGAUAUGGCAGUGGACGUGGAUUUGGGGAUGGCUAUAAUGGGUAUGGAGGAGGACCUGGAGGUGGCAAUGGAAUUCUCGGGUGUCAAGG; value = -0.751
Strand = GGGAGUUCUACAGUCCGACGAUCAAGUCCUGUGCUACACAUCGUAUGUACCGAAUCGGAAAGGUUUUUGGAAAAAAAGGAAAGUAUUAUGUUACGCCGUUCGGAUCUGCACUUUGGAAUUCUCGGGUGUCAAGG; value = -0.176
Strand = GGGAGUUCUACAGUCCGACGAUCUCCUGUGCUACACAUCGUAUGUACCGAAUCGGGUUUUUUUGGGUUUUUUUGGGUUUGGGAAAGUAUUAUGUUACGCCGUUCGGAUCUGCAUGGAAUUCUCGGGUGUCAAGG; value = -0.215

Set 4
Target: RNA binding protein fox-1 homolog 2, RRM domain, GST-SBP tag (RBFOX2, Homo sapiens, UniProt O43251-10, residues 100-194)
Method: RNA Bind-n-Seq
Molecule type: RNA
Matrix: in vitro
Concentration: 365 nM
Setting: natural RNA segment, single round, ends assumed
Relative to: no-protein control
Reading: higher = stronger binding
Endpoint: RBNS enrichment (R)
Target sequence (chain): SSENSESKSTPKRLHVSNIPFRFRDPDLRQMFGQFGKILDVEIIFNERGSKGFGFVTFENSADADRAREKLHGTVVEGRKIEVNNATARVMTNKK
Strand = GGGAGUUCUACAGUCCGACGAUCCUGGGCCAGCCUGUAGCCUGACCGCACUAGUGGUCGCCCAGUCCCCAUCUCUGUGGCCCUCUGAAGCCCCAGCCCCCAUGCAUCAGCCUCUGGCACAUUUCCUCUCCUGCUGGAAUUCUCGGGUGCCAA; value = 6.87
Strand = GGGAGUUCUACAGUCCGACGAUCUCUGGAAGAACAUCAAGAUAUCUUUUUGUGGAUCAAGUUUGAGUACUUGAUCAUUUUUAUAUUACUUUUGUAAAUAUUCUUGGCCACAUUCUACUUCAGCUCUGGAUGUGUGGAAUUCUCGGGUGCCAA; value = 0.571
Strand = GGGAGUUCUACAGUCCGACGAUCCCUUUCACUGUAUGACUUGAAUCAGUUUUGAUUCUAUUUGUAAGUGUUUCUUGUCGUGAGGCACCUGCCAUGUCUGUUGCGUUUUCCUCGGCAGCGUGUAGGGCUUCAGCUGGAAUUCUCGGGUGCCAA; value = 0.231
Strand = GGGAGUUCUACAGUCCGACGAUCCCAAUGGCUCAUGCCUGUAAUCCCAACACUUUGGGAGGCCAAGGUGGGAGGAUGGCUUGUGUCCAGAAGUUCGAGACCAGCCUGGACAACAUAGUGAGAUCCUAUCUCUAUGGAAUUCUCGGGUGCCAA; value = 0.227
Strand = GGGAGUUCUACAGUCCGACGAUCUUAAAUUUUCUCAAAGCAAGGUAACUGCUCAGCUCAGUCAGCUGUGGCAAGCUGGCCAGCCCUCUUCACUCCAGCGUUCUUCACUGCUCUAUGUCUGCUUACACAGCUUGUGGAAUUCUCGGGUGCCAA; value = 0.63
Strand = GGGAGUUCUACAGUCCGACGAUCUUAACUCUCCCUAUAUAUUAACUCUCAAGUGCUGUAUUUUAAAAUUCAGCCCGUUUUUUAAAAAAGCUAAAUACAGUAGCAGCCAGCAGCCAGUCACUAAGAAAGACAGUUGGAAUUCUCGGGUGCCAA; value = 0.593
Strand = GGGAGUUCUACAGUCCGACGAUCCCUUCCCUCUAAGUCGGUGGCUUGAGAGCCGGGGAUGUGGAUUUGGUGUGGUUACAGGGUCCCCUGCCUGCCUCCAGCCUCCGUGUGCUCCAGGGUUGUGAGCAGAGCAGUGGAAUUCUCGGGUGCCAA; value = 1.83
Strand = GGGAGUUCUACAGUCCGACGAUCCUAAAAUCAUGGACUGGCUUUCUGGUUGGAUUUCAGGUAAGAUGUGUUUAAGGCCAGAGCUUUUCUCAGUAUUUGAUUUUUUUCCCCAAUAUUUGAUUUUUUAAAAAUAUUGGAAUUCUCGGGUGCCAA; value = 0.761
Strand = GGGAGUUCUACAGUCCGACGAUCAAGCUGCAUAUAACUAGCAAUAACUACAUUGAACGGUGUGCAUUGUUCAUGAUUGUUGUGUUUUAAGACUUGUAUAUAAACUGCUUUUUCCAAACUCUGUAUAACUUUUAUGGAAUUCUCGGGUGCCAA; value = 0.341
Strand = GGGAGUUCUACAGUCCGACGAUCUAUUUUCUUCUCCUCCCCUCCUCUUCCUCCUUUCUCUUUGCAUUCAAGAUUAUGAAACUUUGCUGUGGGCCCUGCCUUUCCUUCACUUCUUCCUGUUCACCCUGGUGGUGUGGAAUUCUCGGGUGCCAA; value = 2.42
Strand = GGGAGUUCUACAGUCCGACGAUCCACCCAAUAAUAAGAUCAGAAGAUAUUUAAUUCUUUUCACAUUUUAUUUAUUUAAAGUGGAAAUUCUAAGCCUUCCAGUAUAUACCCUUGUCAUGAGAAAAGAGGUACAUUGGAAUUCUCGGGUGCCAA; value = 0.475
Strand = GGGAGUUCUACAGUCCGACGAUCCCUGCUGUCCUGUUGGAAAGUUCUGGAAGUUAAGGACGGAGAGUGCUGUUUGUAAUGCAGUCUUCCAUUCUGUGAGUCUUUGAUUCUCCAUGCUGGCUAGAAGUUGGCCAUGGAAUUCUCGGGUGCCAA; value = 0.338

Other studies, line by line
Molecule = PhoQ, residues 284 288 289 292 302 303 AAQSYM; target = PhoP, residues 12 14 15 18 19 SYFRT (Escherichia coli, UniProt P23836); assay = Sort-seq, refers to: YFP reporter; test system = E. coli; setting = PhoQ-PhoP variant library, with: 10 µM Mg2+; scale = relative to: high Mg2+ state, higher = stronger signaling; endpoint = fold induction; value = 1.02

Excerpt of the above (set 1):
Substitution = R5K; value = 0.276
Substitution = S11A; value = 0.542
Substitution = F9A; value = 0.269
Substitution = K2A; value = 0.367
